Measurements pooled from the literature.
Parts stem from different laboratories: compare values within a part only.
Chain of UniProt P43403 (whole entry, looked up): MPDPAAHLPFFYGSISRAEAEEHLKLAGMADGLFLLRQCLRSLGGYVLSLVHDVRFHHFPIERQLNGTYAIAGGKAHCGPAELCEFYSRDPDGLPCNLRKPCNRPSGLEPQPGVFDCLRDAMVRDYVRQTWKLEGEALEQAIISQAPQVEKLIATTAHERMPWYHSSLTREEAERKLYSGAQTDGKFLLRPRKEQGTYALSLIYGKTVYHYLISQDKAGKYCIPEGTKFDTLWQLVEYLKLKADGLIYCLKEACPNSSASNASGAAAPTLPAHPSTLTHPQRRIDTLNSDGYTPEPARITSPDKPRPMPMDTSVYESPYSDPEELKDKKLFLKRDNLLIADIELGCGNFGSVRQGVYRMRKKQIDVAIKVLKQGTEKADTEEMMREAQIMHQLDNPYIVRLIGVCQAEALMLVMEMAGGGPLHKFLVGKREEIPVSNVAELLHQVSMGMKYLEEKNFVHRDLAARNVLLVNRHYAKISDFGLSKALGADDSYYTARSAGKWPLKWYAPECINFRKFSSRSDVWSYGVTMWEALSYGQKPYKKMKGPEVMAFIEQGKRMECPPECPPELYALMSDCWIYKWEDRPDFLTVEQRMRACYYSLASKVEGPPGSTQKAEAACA

Series 1 — technique: universal PBM; molecule type: double-stranded DNA, one strand shown; medium: in vitro; tested at: not given; direction: higher = stronger binding; endpoint: E-score
Target: Sal-like protein 4, full length isoform B (SALL4, Homo sapiens, UniProt Q9UJQ4-2, residues 1-616)
Notes: 8-mer, flanks averaged, mean of replicates
Construct (chain): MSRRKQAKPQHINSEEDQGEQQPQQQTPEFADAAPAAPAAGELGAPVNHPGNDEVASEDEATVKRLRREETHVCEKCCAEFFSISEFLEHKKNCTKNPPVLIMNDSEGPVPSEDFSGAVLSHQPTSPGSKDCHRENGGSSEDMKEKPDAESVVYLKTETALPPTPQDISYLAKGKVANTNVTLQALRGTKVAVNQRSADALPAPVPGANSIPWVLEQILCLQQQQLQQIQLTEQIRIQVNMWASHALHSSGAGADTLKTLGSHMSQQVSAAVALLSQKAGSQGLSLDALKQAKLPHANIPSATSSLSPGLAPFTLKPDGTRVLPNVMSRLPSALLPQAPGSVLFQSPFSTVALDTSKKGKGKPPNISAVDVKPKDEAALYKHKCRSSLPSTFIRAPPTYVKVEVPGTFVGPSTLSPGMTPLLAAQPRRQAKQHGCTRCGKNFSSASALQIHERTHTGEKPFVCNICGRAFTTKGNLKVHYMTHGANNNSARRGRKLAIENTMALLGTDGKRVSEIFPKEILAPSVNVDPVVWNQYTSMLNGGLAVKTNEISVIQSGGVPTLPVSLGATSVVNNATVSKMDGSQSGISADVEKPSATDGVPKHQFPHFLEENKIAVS
CGCAGTTA: 0.0374
CTCTGACC: -0.312
AAGATACT: 0.104
AGATACAC: 0.0666
AAAGTTCG: -0.0158
GGTTACGA: 0.0165
GTCCGCCA: -0.127
ACTTGCCG: -0.143

Series 2 — technique: RNA Bind-n-Seq; molecule type: RNA; medium: in vitro; tested at: 20 nM; notes: 6-mer, flanks averaged, single round; together with: 150 mM LiCl; relative to: input library; direction: higher = stronger binding; endpoint: 6-mer enrichment (R)
Target: TAR DNA-binding protein 43, full length, His tag (TARDBP, Homo sapiens, UniProt Q13148, residues 1-414)
GAGACU: 0.902
GUGGCU: 1.11
AAAACU: 0.852
CUGUCU: 0.921
CUGCUA: 0.882
GUUUAA: 1.05
AUACGU: 0.877
ACUCAG: 0.837

Further values, each from its own experiment
COc1cc(CNC(=O)CCCC/C=C/C(C)C)ccc1O
infection rate (Plasmodium berghei; inhibitor; Huh-7, GFP-expressing sporozoites, liver stage; 10 µM, 24 h; relative to: untreated control): 79%

CO[C@H]1CC[C@H](CNc2ccc(S(=O)(=O)NC(=O)c3ccc(N4CCN(CC5=C(c6ccc(Cl)cc6)CC(C)(C)CC5)CC4)cc3Oc3cnc4[nH]ccc4c3)cc2[N+](=O)[O-])CC1
remaining binding (Tyrosine-protein kinase ZAP-70 (ZAP70, Homo sapiens, UniProt P43403); cell-free assay, competition with immobilised ligand; 1 µM): 97%

Repeated from above (series 2):
CUGCUA: 0.882
GUUUAA: 1.05
AUACGU: 0.877
